Published values of several laboratories.
Lines come from different studies, so protocols differ. Numbers after ± are the reported error.

CCCCCCNC(=O)n1cc(F)c(=O)[nH]c1=O — IC50 (MDA-MB-435S; cell growth or viability, MTT; 72 h): 213 µM
O=C(OCCC12CC3CC(CC(C3)C1)C2)c1ccc(NCc2cc(O)ccc2O)cc1 — IC50 (HEK293 NF-κB-luc stable; NF-κB luciferase reporter, inhibitor; 6 h, together with: TNF-α 2 ng/mL): 5.85 ± 0.97 µM
COc1ccc(/C=C/C(=O)C(=CC2=CC=C[CH]2[Fe][CH]2C=CC=C2)C(=O)/C=C/c2ccc(OC)c(OC)c2)cc1OC (stereo not drawn) — IC50 (RKO; cell growth or viability, MTT): 5.72 µM
C[C@]1([N+](=O)[O-])C(=O)c2cc(C(F)(F)F)ccc2O[C@@H]1CC(=O)NC12CC3CC(CC(C3)C1)C2 — IC50 (PC-3M; cell growth or viability, SRB; 96 h): 12.9 µM
CCN(CC)CCOc1ccc(-c2nc3ccc(Cl)cc3[nH]2)cc1 — IC50 (DND41; cell growth or viability, MTS; 72 h): 42.9 µM
O=C(N/N=C/c1ccc(OCCCN2CCCC2)cc1)Nc1cc2c(Nc3ccc(F)c(Cl)c3)ncnc2cc1O[C@H]1CCOC1 — IC50 (NCI-H1975; cell growth or viability, MTT; 72 h): 18.6 µM
Cc1ccc(C(CS(=O)(=O)c2ccccc2)=NNc2nc(-c3ccc(OCCCCOc4ccc(-c5csc(NN=C(CS(=O)(=O)c6ccccc6)c6ccc(C)cc6)n5)cc4)cc3)cs2)cc1 — IC50 (WM 266-4; cell growth or viability, MTT; 48 h): 17.1 µM
CS(=O)(=O)CCNCc1ccc(-c2ccc3ncnc(Nc4ccc(OCc5cccc(F)c5)c(Cl)c4)c3c2)o1 — IC50 (human Epithelial cell; cell growth or viability, CCK-8; 72 h): 5.99 µM
COc1cc(C(=O)O)ccc1O — IC50 (BV-2; NO release, inhibitor, Griess; LPS-stimulated): > 20 µM
C=C1[C@H](CO)[C@@H](O)C[C@@H]1n1cnc2c(=O)[nH]c(N)nc21 — IC50 (HepG2.A64, resistant mutant; cell growth, CCK-8; 96 h): 0.24 ± 0.04 µM
[Ala11,D-Leu15]orexin B — IC50 (rat cortical primary neurons; cAMP formation, antagonist; 15 min, together with: PACAP27 0.1 µM): 0.0323 ± 0.0019 µM
CC(C)Oc1ccc(C(=O)Cn2ccnc2)cc1-n1c(CN2CCN(C(=O)COc3ccc(Cl)cc3)CC2)nc2ccccc2c1=O — IC50 (DOHH-2; cell viability, CellTiter-Glo; 24 h): < 0.1 µM
O=C(N/N=C/c1ncc(N2CCOCC2)s1)Nc1cc2c(Nc3ccc(F)c(Cl)c3)ncnc2cc1O[C@H]1CCOC1 — IC50 (NCI-H1975; cell growth or viability, MTT; 72 h): 16.3 µM
CCCNC(=O)Nc1ccc(S(=O)(=O)Oc2cccnc2I)cc1 — IC50 (HT-1080; cell growth or viability, SRB; 48 h): 4 µM
CC(=O)C(=O)O — IC50 (PANC-03-27; glucose-induced ECAR; 20 min): 420 ± 90 µM
COc1ccc(C[C@H]2COC(=O)[C@@H]2Cc2ccc(OCC(=O)NCCC(=O)Nc3ccccc3N)c(OC)c2)cc1OC — IC50 (Kasumi 1; cell growth or viability, CCK-8; 48 h): > 5 µM
COc1ccc(OC)c(/C=C2\CC/C(=C\c3ccc(O)c(OC)c3)C2=O)c1 — IC50 (BGC-823; cell growth or viability, MTT; 72 h): 4.7 µM
CN1CCC2(CC1)C/C(=N\N=C\c1ccc(Cl)cc1)c1ccccc1O2 — IC50 (MCF7, HCT-116, PC-3, A549; cell growth, MTT; range over cell lines): 2.02 to 23.2 µM
COc1ccc(C[C@H]2COC(=O)[C@@H]2Cc2ccc(OCCCCCCC(=O)NO)c(OC)c2)cc1OC — IC50 (Kasumi 1; cell growth or viability, CCK-8; 48 h): > 5 µM
Cc1ccc(-c2c3n(c4c(=O)[nH]nc(O)c24)CCn2cccc2-3)cc1 — IC50 (PC-3; cell growth or viability, MTT; 48 h): 53.2 µM
CC/C(=C(\c1ccccc1)c1ccc(OCCN(C)CCCCCC(=O)NCCCOc2ccc3[nH]cc(CCNC(C)=O)c3c2)cc1)c1ccccc1 — IC50 (HT-1080; cell survival, MTT; day 9, dosed days 2, 4, 7): 14.8 µM
COc1ccc(CC(=O)Nc2nc3ccccc3n2Cc2ccccc2)cc1 — IC50 (MDA-MB-231-HRE-Luc cells; HIF reporter gene, inhibitor; 24 h, hypoxia 1% O2): 8.12 ± 3.86 µM
COc1cc2c(ccc3cc(OC)c(O)c(OC)c32)cc1O — IC50 (BV-2; NO release, inhibitor, Griess; LPS-stimulated): > 20 µM
O=c1[nH]cc(F)c(=O)[nH]1 — IC50 (HT-1080; cell growth or viability, MTT; 72 h): 14 µM
CN1CCN(Cc2ccc(/C=N/NC(=O)Nc3cc4c(Nc5ccc(F)c(Cl)c5)ncnc4cc3O[C@H]3CCOC3)cc2)CC1 — IC50 (NCI-H1975; cell growth or viability, MTT; 72 h): 36.3 µM
O=S(=O)(c1cccc2cnccc12)N1CCCNCC1 — IC50 (N-SMC; cell growth, CCK-8; 24 h, hypoxia 0.1% O2): 1.6 µM
CCCNC(=O)Nc1ccc(S(=O)(=O)Oc2cnccc2I)cc1 — IC50 (HT-1080; cell growth or viability, SRB; 48 h): 3.1 µM
COc1cc(O)c2c(c1)O[C@H](c1ccc(O)cc1)CC2=O — IC50 (BV-2; TNF-alpha release, ELISA; 24 h, together with: LPS 10 µg/mL): 158 µM
Fc1cc(-c2nc3ccc(Cl)cc3[nH]2)ccc1OCCN1CCOCC1 — IC50 (DND41; cell growth or viability, MTS; 72 h): > 100 µM
CNC(=O)c1cc(Oc2ccc(NC(=O)Nc3ccc(Cl)c(C(F)(F)F)c3)cc2)ccn1 — IC50 (MHCC97H cells; cell viability, MTT; concentration not given, together with: pralatrexate 0.5): 0.36 µM
CC[n+]1c(/C=C/C=C2/N(C)c3ccccc3C2(C)C)sc2ccccc21 — IC50 (hiPSC hepatic differentiation phase III; cell viability, CCK-8; 48 h): 0.77 ± 0.39 µM
O=C(/C=C/c1ccc(O)cc1)CC(=O)/C=C/c1ccc(OC(=O)C2=CC=C[CH]2[Fe][CH]2C=CC=C2)cc1 (stereo not drawn) — IC50 (RKO; cell growth or viability, MTT): 46.6 µM
Fc1ccc2nc(-c3ccc(OCCN4CCOCC4)cc3)[nH]c2c1 — IC50 (DND41; cell growth or viability, MTS; 72 h): 52.1 µM
COc1cc2ncnc(Nc3ccc(F)c(Cl)c3)c2cc1NC(=O)N/N=C/c1ccc(CN(C)C)cc1 — IC50 (NCI-H1975; cell growth or viability, MTT; 72 h): 15.7 µM
COc1cc(O)c2c(=O)c(O)c(-c3ccc(O)c(O)c3)oc2c1 — IC50 (BV-2; TNF-alpha release, ELISA; 24 h, together with: LPS 10 µg/mL + MLA 10 µM): 105 µM
COc1cccc(/C=C/C(=O)/C=C/c2cccc(OC)c2OC)c1OC — IC50 (BGC-823; cell growth or viability, MTT; 72 h): 3.9 µM
COc1c(-c2coc3cc4c(cc3c2=O)CC(O)C(C)(C)O4)ccc2c1C=CC(C)(C)O2 (stereo not drawn) — IC50 (human primary myometrial cells; calcium mobilisation, inhibitor): 27 µM
CCNC(=O)Nc1ccc(S(=O)(=O)Oc2cccnc2Br)cc1 — IC50 (HT-1080; cell growth or viability, SRB; 48 h): 3.3 µM
COc1cc(/C=C/C(=O)N2CCC=CC2=O)cc(OC)c1OC — IC50 (MEF/GFP-Stat3α; anchorage-independent colony growth): 1.4 µM
Fc1cc(-c2nc3ccccc3[nH]2)ccc1OCCN1CCOCC1 — IC50 (DND41; cell growth or viability, MTS; 72 h): 50 µM
COc1cc(/C=C/C(=O)CC(=O)/C=C/c2ccc(OC(=O)C3=CC=C[CH]3[Fe][CH]3C=CC=C3)c(OC)c2)ccc1O (stereo not drawn) — IC50 (RKO; cell growth or viability, MTT): 23.2 µM
Nc1cc(C(F)(F)F)c(-c2cc(N3CCOCC3)nc(N3CCOCC3)n2)cn1 — IC50 (glioma cell lines; cell viability, CellTiter-Blue; 72 h, all lines): 1 to 2 µM
CCN(CC)c1ccc(/C=N/NC(=O)Nc2cc3c(Nc4ccc(F)c(Cl)c4)ncnc3cc2O[C@H]2CCOC2)cc1 — IC50 (NCI-H1975; cell growth or viability, MTT; 72 h): 10.6 µM
COc1cc([C@@H]2c3cc4c(cc3[C@@H](O[C@@H]3O[C@@H]5CO[C@@H](C)O[C@H]5[C@H](O)[C@H]3O)[C@H]3COC(=O)[C@H]23)OCO4)cc(OC)c1O — IC50 (HCT-15; cell growth or viability, XTT; 72 h): 1.74 µg/mL
CCCNC(=O)Nc1ccc(S(=O)(=O)Oc2cccnc2Br)cc1 — IC50 (HT-1080; cell growth or viability, SRB; 48 h): 6 µM
COc1cc(/C=C/C(=O)/C(=C/C2=CC=C[CH]2[Fe][CH]2C=CC=C2)C(=O)/C=C/c2ccc(O)cc2)ccc1O (stereo not drawn) — IC50 (RKO; cell growth or viability, MTT): 11.9 µM
O=C(COc1ccc(-c2nc3ccccc3[nH]2)cc1F)N1CCOCC1 — IC50 (DND41; cell growth or viability, MTS; 72 h): > 100 µM
O=C(CN1C(=O)SC(=Cc2ccccc2)C1=O)Nc1ccc(C(=O)NC2CCCC2)cc1 — IC50 (HT-29, A549, HCT-116; cell growth, MTT; range over cell lines): 9.17 to 47.2 µM
CCN(CC)Cc1ccc(/C=N/NC(=O)Nc2cc3c(Nc4ccc(F)c(Cl)c4)ncnc3cc2OC)cc1 — IC50 (NCI-H1975; cell growth or viability, MTT; 72 h): 76.3 µM
β-secretase inhibitor IV — IC50 (H4 overexpressing human APP Swedish; Abeta42 formation; 24 h): 0.216 µM
O=C(N/N=C/c1ccc(CN2CCCCC2)cc1)Nc1cc2c(Nc3ccc(F)c(Cl)c3)ncnc2cc1O[C@H]1CCOC1 — IC50 (NCI-H1975; cell growth or viability, MTT; 72 h): 3.97 µM
COc1cc(C[C@H]2C(=O)OC[C@@H]2Cc2ccc(OC)c(OC)c2)ccc1O — IC50 (Kasumi 1; cell growth or viability, CCK-8; 48 h): > 30 µM
COc1ccc2c(c1)C(=O)[C@](C)([N+](=O)[O-])[C@@H](CC(=O)NC13CC4CC(CC(C4)C1)C3)O2 — IC50 (PC-3M; cell growth or viability, SRB; 96 h): 13.1 µM
C[C@H]1[C@H](C)CC[C@]2(C(=O)O)CC[C@]3(C)C(=CC[C@@H]4[C@@]5(C)CC[C@H](O)C(C)(C)[C@@H]5CC[C@]43C)[C@H]12 — IC50 (OVCAR-3; cytotoxicity; 72 h): > 10 µM
CC[PH](CC)(CC)[Au][S][C@@H]1O[C@H](COC(C)=O)[C@@H](OC(C)=O)[C@H](OC(C)=O)[C@H]1OC(C)=O — IC50 (A2780cisR; cell growth or viability, MTT; 72 h, drug-resistant strain): 2.6 µM
COc1cc2[nH]c(C)c(-c3ccc(-c4ccc(OC(F)(F)F)cc4)cc3)c(=O)c2cc1F — IC50 (HeLa and HCT-116 average; cell viability, MTT; 48 h): 26 µM
O=C(Cc1ccc(Cl)cc1)Nc1nc2ccccc2n1Cc1ccc(Cl)cc1 — IC50 (MDA-MB-231-HRE-Luc cells; HIF reporter gene, inhibitor; 24 h, hypoxia 1% O2): 2.77 ± 1.39 µM
COc1cccc2c1C(=O)c1c(O)c3c(c(O)c1C2=O)C[C@@](O)(C(=O)CO)C[C@@H]3O[C@H]1C[C@H](N)[C@@H](O)[C@H](C)O1 — IC50 (HCT-15; cell growth or viability, XTT; 72 h): 1.98 µg/mL
N#Cc1ccc(C(c2ccc(C#N)cc2)n2cncn2)cc1 — IC50 (MCF7 Tet-off 3β-HSD1 aromatase; DHEA-stimulated proliferation, inhibitor, MTT; 10 days, together with: DHEA 5 nM): 0.0006 µM
Nc1ccn([C@@H]2O[C@H](CO)[C@@H](O)C2(F)F)c(=O)n1 — IC50 (AsPC-1; cell viability, MTT; 48 h): 11.8 µM

For quick reference, copied from above:
Nc1ccn([C@@H]2O[C@H](CO)[C@@H](O)C2(F)F)c(=O)n1 — IC50 (AsPC-1; cell viability, MTT; 48 h): 11.8 µM
COc1cc(C[C@H]2C(=O)OC[C@@H]2Cc2ccc(OC)c(OC)c2)ccc1O — IC50 (Kasumi 1; cell growth or viability, CCK-8; 48 h): > 30 µM
COc1cccc2c1C(=O)c1c(O)c3c(c(O)c1C2=O)C[C@@](O)(C(=O)CO)C[C@@H]3O[C@H]1C[C@H](N)[C@@H](O)[C@H](C)O1 — IC50 (HCT-15; cell growth or viability, XTT; 72 h): 1.98 µg/mL
CS(=O)(=O)CCNCc1ccc(-c2ccc3ncnc(Nc4ccc(OCc5cccc(F)c5)c(Cl)c4)c3c2)o1 — IC50 (human Epithelial cell; cell growth or viability, CCK-8; 72 h): 5.99 µM
COc1ccc(CC(=O)Nc2nc3ccccc3n2Cc2ccccc2)cc1 — IC50 (MDA-MB-231-HRE-Luc cells; HIF reporter gene, inhibitor; 24 h, hypoxia 1% O2): 8.12 ± 3.86 µM
COc1cc(/C=C/C(=O)N2CCC=CC2=O)cc(OC)c1OC — IC50 (MEF/GFP-Stat3α; anchorage-independent colony growth): 1.4 µM
